Assay results gathered from unrelated publications.
A part holds a random share of what one study measured.

Series 1
Target: RNA binding protein fox-1 homolog 2, RRM domain, GST-SBP tag (RBFOX2, Homo sapiens, UniProt O43251-10, residues 100-194)
Method: RNA Bind-n-Seq
Molecule type: RNA
Medium: in vitro
Concentration: 365 nM
Setting: natural RNA segment, single round, ends assumed
Baseline: no-protein control
Reading: higher = stronger binding
Residues (chain): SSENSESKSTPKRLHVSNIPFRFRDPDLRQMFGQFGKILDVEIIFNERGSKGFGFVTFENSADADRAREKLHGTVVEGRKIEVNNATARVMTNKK
Under “RBNS enrichment (R)”, `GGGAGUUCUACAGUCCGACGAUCCCAUGUGGUCACAGCCUGCCAGCAGCAAGACACCUGGGUCCACCACACCUCAGUGGAAGUAGCAGAAUGCCUCCCUGACCCGGGGCUCUUAGGGACUCUUGCUGCUAUGCUGGAAUUCUCGGGUGCCAA` is recorded as 0.472.
For `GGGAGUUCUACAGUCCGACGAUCCAACUAAAAUAUCAUAGUUCUGUGGUAGACAUUGUUUUAUAAUGAAAUAACUGCAACUAGAGAAAACUGUAUAAAAACAUUAAAUUGUCAGUAUUUUUGUAAGGUUCCAUUGGAAUUCUCGGGUGCCAA`, “RBNS enrichment (R)” read 0.348.
Under “RBNS enrichment (R)”, `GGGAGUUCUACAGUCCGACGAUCUGUAGCUUUUAUUUAUUCAGAACGCAUACGGCAUGUUAAUGACUCUGAUGGUGUCCUCCUCUGGGCAGCUGUAUAGGAUCAUCAUGUGGUUACAAAAAAUACUUCCCUCAUGGAAUUCUCGGGUGCCAA` is recorded as 1.43.
Under “RBNS enrichment (R)”, `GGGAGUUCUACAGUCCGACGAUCCCACCCUUCACUGAGUUCUCUGGAUUUGUUCUCAGUGCCUUAGCAACGAAAACCUGUGCUUGUGUGUGUGUGGCGGCGGGGAGGGAGGAUCCUGUUUCCCACCUCCUUCUUGGAAUUCUCGGGUGCCAA` is recorded as 0.705.
`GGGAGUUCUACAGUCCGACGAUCAAGGAAAAUUCUCAGUGUGAUAUACAGAUAUAUUUAAUUGUGUCAUAUUAAACCUUCUGAUUUCAUAUUUGAUGGUCUUUAUUUGAGAAAGUGAGAGCAGUUUCGACCCGUGGAAUUCUCGGGUGCCAA`: “RBNS enrichment (R)” 0.281.
For `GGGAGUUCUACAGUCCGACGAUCAUCCUACAACUCACAUUAGAGAACAUCCUGGCUUUUGAGCACUUUUCAAACAAUCAAGUUGACUCACGUGGGUCCUGAGGCCUGCAGCACGUCGGAUGCUACCCCACUAUUGGAAUUCUCGGGUGCCAA`, “RBNS enrichment (R)” read 0.43.
Under “RBNS enrichment (R)”, `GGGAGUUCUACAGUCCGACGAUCAGGAAACACUGAUUUGCUUUCUGUUUCCCAUAUCUCACCUCUAGGAUAUGAUGGAAGAAGUGCUUGAAAGAGAAUUUUAGCAGAUGGUACUUUUCUCAGUGACCUCUGGAUGGAAUUCUCGGGUGCCAA` is recorded as 0.512.
Under “RBNS enrichment (R)”, `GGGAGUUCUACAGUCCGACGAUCCAAAGUUACCAUAUUUUGGUGUUUUUGUGUUUUCUCUUUAUAAGGCAAAAAGAUCUGUAUUUACACUCCUUCACCUAGGGAUGUGUUUGUUGCCCUCCUACCCAAUUGUCUGGAAUUCUCGGGUGCCAA` is recorded as 0.496.

Series 2
Target: PABPC1L2, full length, GST fusion (mouse, UniProt A0ABA7IW68)
Method: RNAcompete
Molecule type: RNA
Medium: in vitro
Concentration: 20 nM
Setting: 7-mer, probes averaged, single round
Baseline: mean of 7-mers
Reading: higher = stronger binding
Construct (chain): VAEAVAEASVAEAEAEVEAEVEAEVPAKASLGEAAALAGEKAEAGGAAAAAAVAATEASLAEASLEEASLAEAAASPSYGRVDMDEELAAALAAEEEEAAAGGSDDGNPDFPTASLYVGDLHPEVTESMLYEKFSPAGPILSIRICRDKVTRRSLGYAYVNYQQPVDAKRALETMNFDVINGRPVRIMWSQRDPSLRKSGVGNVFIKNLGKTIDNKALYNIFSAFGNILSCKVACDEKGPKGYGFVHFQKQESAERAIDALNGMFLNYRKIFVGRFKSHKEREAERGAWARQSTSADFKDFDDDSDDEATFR
The 7-mer Z-score of `CACGUUG` is reported as -0.204.
`CAAGGAG` has a 7-mer Z-score of 0.254.
`GUCUGUA` has a 7-mer Z-score of -0.237.
`AGUGCUC` has a 7-mer Z-score of -0.374.
For `ACGGUCU`, the 7-mer Z-score was -0.228.
`AUUGACA` has a 7-mer Z-score of -0.11.
With `UAUAUCC` the 7-mer Z-score was -0.427.
The 7-mer Z-score of `CGCACUG` is reported as -0.05.
The 7-mer Z-score of `UGCUCUG` is reported as -0.32.
`GACCAUC` gave a 7-mer Z-score of -0.269.
The 7-mer Z-score of `ACAUUCG` is reported as -0.0482.
`UGAAAAU` has a 7-mer Z-score of 2.32.
`GUACCGU` has a 7-mer Z-score of -0.253.
`CAUAAAC` gave a 7-mer Z-score of 2.19.
For `UUUGAUU`, the 7-mer Z-score was -0.139.
For `CCUGCUA`, the 7-mer Z-score was -0.193.
`CGGGAUG` gave a 7-mer Z-score of 0.12.
With `GGAAAAG` the 7-mer Z-score was 2.05.
With `UUAGCCC` the 7-mer Z-score was -0.333.
`CUGGCCC` has a 7-mer Z-score of -0.425.
For `ACCUCCU`, the 7-mer Z-score was -0.387.
The 7-mer Z-score of `GUCGUAA` is reported as -0.228.

Series 3
Target: Sal-like protein 4, full length isoform A (SALL4, Homo sapiens, UniProt Q9UJQ4, residues 1-1053)
UniProt Q9UJQ4, sequence (whole entry, looked up): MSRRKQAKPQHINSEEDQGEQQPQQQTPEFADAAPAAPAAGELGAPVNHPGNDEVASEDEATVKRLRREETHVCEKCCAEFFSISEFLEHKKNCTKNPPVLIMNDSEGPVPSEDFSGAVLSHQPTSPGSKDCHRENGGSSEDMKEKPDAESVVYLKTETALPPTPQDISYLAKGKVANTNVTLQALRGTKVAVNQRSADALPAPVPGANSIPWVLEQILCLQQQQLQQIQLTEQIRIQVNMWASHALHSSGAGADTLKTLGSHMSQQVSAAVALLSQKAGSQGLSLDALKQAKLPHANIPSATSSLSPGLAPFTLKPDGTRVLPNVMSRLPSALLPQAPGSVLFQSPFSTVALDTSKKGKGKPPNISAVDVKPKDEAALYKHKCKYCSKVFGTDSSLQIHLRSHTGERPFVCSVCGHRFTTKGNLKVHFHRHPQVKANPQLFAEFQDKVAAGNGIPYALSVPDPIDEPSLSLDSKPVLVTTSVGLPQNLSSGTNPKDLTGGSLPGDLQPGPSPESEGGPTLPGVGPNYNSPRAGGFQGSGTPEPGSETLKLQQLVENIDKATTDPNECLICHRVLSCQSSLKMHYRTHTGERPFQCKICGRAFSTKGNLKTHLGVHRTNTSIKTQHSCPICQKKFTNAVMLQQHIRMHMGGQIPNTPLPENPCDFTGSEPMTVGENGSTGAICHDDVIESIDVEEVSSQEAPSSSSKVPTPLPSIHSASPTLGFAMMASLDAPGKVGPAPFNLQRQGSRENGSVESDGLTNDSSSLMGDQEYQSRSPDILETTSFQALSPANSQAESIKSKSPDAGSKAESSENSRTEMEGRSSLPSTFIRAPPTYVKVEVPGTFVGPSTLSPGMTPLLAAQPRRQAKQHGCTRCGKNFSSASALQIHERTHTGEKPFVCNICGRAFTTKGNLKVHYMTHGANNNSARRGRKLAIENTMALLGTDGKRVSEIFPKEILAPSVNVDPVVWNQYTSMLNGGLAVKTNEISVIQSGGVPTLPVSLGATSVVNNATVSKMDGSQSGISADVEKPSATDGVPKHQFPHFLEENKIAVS
Method: universal PBM
Molecule type: double-stranded DNA, one strand shown
Medium: in vitro
Concentration: 600 nM
Setting: 8-mer, flanks averaged, mean of replicates
Reading: higher = stronger binding
`ATCTTATA` has an E-score of 0.283.
`ATTTGAGC` gave an E-score of 0.0755.
For `ATTTATAC`, the E-score was 0.314.
For `GGCGCCCC`, the E-score was -0.409.
`ATCGTCGC` has an E-score of -0.0488.
The E-score of `TATTTCAA` is reported as 0.4.
With `CTAGCCCA` the E-score was -0.132.
`TCCTAGGA` gave an E-score of -0.182.
For `AGGAGATC`, the E-score was -0.0805.
For `CAATAGCG`, the E-score was -0.167.
For `GGTCTTCA`, the E-score was -0.0821.
The E-score of `GGCGCGAA` is reported as -0.152.
The E-score of `CGGGGACA` is reported as -0.274.
For `AGGCTAAT`, the E-score was 0.111.
The E-score of `GTATTCAC` is reported as 0.17.
`CGCAAACC` gave an E-score of -0.113.
`AGTCGATG` gave an E-score of 0.0288.
For `CAGCAACG`, the E-score was 0.00191.
For `AGATGAAG`, the E-score was 0.0668.
With `AGATGCGC` the E-score was -0.077.
`GGCCTTAA` gave an E-score of -0.0492.
With `GCGAGTAA` the E-score was 0.0689.
For `TACGGCCA`, the E-score was -0.158.
`ACCTAGTG` has an E-score of -0.0553.
`AGAAGCCG` gave an E-score of -0.236.

Series 4
Target: Histone acetyltransferase KAT6A, winged helix 1, GST fusion (KAT6A, Homo sapiens, UniProt Q92794, residues 1-85)
Method: protein binding microarray
Molecule type: double-stranded DNA, one strand shown
Medium: in vitro
Concentration: not given
Setting: 8-mer, flanks averaged, mean of 2 arrays, mostly near background
Baseline: not given
Reading: higher = stronger binding
Residues (chain): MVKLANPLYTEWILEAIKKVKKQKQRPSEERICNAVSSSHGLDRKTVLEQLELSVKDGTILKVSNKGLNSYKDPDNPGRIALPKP
The E-score of `CACCAACA` is reported as -0.157.
`ACGGGGGA` has an E-score of 0.232.
`CGGTGGCC` gave an E-score of 0.232.
With `ACCAGGGA` the E-score was -0.316.
`CCGAGGTC` gave an E-score of 0.138.
With `CTACAAAC` the E-score was -0.0558.
With `ATGTGGAG` the E-score was -0.204.
For `AGGGCGCG`, the E-score was 0.286.
For `AACAAGGC`, the E-score was -0.174.
For `CGTAGAAA`, the E-score was -0.171.
The E-score of `AATTTCGT` is reported as -0.0543.
The E-score of `ATCTCGCG` is reported as 0.113.
`CGCTTGCA` has an E-score of 0.0515.
With `TCCAAAGA` the E-score was -0.227.
For `AAGGGTGT`, the E-score was -0.191.
With `CGCCCGAC` the E-score was 0.437.
`GTGCAGGA` has an E-score of -0.161.
The E-score of `GTGGTTAA` is reported as -0.0978.
For `AAAGACGG`, the E-score was 0.12.
The E-score of `AGGCCCTA` is reported as -0.148.
For `ACTCCCAC`, the E-score was -0.0454.
For `CTACTCTA`, the E-score was -0.127.

Repeated from above (series 1):
`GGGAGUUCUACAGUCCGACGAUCAAGGAAAAUUCUCAGUGUGAUAUACAGAUAUAUUUAAUUGUGUCAUAUUAAACCUUCUGAUUUCAUAUUUGAUGGUCUUUAUUUGAGAAAGUGAGAGCAGUUUCGACCCGUGGAAUUCUCGGGUGCCAA`: “RBNS enrichment (R)” 0.281.
For `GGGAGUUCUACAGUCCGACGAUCCAACUAAAAUAUCAUAGUUCUGUGGUAGACAUUGUUUUAUAAUGAAAUAACUGCAACUAGAGAAAACUGUAUAAAAACAUUAAAUUGUCAGUAUUUUUGUAAGGUUCCAUUGGAAUUCUCGGGUGCCAA`, “RBNS enrichment (R)” read 0.348.
Under “RBNS enrichment (R)”, `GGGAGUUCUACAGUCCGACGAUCAGGAAACACUGAUUUGCUUUCUGUUUCCCAUAUCUCACCUCUAGGAUAUGAUGGAAGAAGUGCUUGAAAGAGAAUUUUAGCAGAUGGUACUUUUCUCAGUGACCUCUGGAUGGAAUUCUCGGGUGCCAA` is recorded as 0.512.
For `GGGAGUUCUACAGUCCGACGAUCAUCCUACAACUCACAUUAGAGAACAUCCUGGCUUUUGAGCACUUUUCAAACAAUCAAGUUGACUCACGUGGGUCCUGAGGCCUGCAGCACGUCGGAUGCUACCCCACUAUUGGAAUUCUCGGGUGCCAA`, “RBNS enrichment (R)” read 0.43.
Under “RBNS enrichment (R)”, `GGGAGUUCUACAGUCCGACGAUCCCACCCUUCACUGAGUUCUCUGGAUUUGUUCUCAGUGCCUUAGCAACGAAAACCUGUGCUUGUGUGUGUGUGGCGGCGGGGAGGGAGGAUCCUGUUUCCCACCUCCUUCUUGGAAUUCUCGGGUGCCAA` is recorded as 0.705.
Under “RBNS enrichment (R)”, `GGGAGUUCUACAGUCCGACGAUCUGUAGCUUUUAUUUAUUCAGAACGCAUACGGCAUGUUAAUGACUCUGAUGGUGUCCUCCUCUGGGCAGCUGUAUAGGAUCAUCAUGUGGUUACAAAAAAUACUUCCCUCAUGGAAUUCUCGGGUGCCAA` is recorded as 1.43.
Under “RBNS enrichment (R)”, `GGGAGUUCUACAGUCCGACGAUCCAAAGUUACCAUAUUUUGGUGUUUUUGUGUUUUCUCUUUAUAAGGCAAAAAGAUCUGUAUUUACACUCCUUCACCUAGGGAUGUGUUUGUUGCCCUCCUACCCAAUUGUCUGGAAUUCUCGGGUGCCAA` is recorded as 0.496.
Under “RBNS enrichment (R)”, `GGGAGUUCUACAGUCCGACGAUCCCAUGUGGUCACAGCCUGCCAGCAGCAAGACACCUGGGUCCACCACACCUCAGUGGAAGUAGCAGAAUGCCUCCCUGACCCGGGGCUCUUAGGGACUCUUGCUGCUAUGCUGGAAUUCUCGGGUGCCAA` is recorded as 0.472.
